{"data": "Experimental data from different studies", "PFF0160c E182D": "Dihydroorotate dehydrogenase (quinone), mitochondrial (PFF0160c, Plasmodium falciparum, UniProt Q08210, E182D)", "ACHE": "Acetylcholinesterase (ACHE, Homo sapiens, UniProt P22303)", "CHRM2": "Muscarinic acetylcholine receptor M2 (CHRM2, Homo sapiens, UniProt P08172)", "note": "Compare with care: the assays were run in different laboratories.", "UniProt P22303, sequence (whole entry, looked up)": "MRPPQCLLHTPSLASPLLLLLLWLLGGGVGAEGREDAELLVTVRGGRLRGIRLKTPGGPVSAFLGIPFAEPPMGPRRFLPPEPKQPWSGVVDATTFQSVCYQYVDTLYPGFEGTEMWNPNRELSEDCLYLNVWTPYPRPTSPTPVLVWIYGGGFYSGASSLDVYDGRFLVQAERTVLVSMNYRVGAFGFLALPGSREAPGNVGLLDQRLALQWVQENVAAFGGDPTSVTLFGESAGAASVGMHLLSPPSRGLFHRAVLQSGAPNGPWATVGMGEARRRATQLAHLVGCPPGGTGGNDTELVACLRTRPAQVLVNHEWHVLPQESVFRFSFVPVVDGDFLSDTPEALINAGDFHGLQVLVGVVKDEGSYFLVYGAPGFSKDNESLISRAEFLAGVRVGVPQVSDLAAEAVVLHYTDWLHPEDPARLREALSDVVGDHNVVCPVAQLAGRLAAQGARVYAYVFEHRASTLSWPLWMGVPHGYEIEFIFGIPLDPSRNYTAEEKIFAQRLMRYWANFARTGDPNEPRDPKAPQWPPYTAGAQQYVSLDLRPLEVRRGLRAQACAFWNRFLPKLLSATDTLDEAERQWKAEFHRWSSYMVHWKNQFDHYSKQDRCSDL", "UniProt P08172, sequence (whole entry, looked up)": "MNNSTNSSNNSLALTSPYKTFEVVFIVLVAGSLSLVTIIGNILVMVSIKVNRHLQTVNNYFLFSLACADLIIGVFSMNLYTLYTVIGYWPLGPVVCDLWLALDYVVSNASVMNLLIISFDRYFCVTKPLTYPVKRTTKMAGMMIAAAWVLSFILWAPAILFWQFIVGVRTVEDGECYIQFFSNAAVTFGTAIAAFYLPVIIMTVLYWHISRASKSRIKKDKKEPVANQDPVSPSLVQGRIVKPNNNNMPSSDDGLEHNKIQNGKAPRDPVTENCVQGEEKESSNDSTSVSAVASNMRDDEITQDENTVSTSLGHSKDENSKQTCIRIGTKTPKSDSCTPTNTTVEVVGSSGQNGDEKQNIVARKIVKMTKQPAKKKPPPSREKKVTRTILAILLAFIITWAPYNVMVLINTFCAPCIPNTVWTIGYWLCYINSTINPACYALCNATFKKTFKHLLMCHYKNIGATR", "UniProt P08173, sequence (whole entry, looked up)": "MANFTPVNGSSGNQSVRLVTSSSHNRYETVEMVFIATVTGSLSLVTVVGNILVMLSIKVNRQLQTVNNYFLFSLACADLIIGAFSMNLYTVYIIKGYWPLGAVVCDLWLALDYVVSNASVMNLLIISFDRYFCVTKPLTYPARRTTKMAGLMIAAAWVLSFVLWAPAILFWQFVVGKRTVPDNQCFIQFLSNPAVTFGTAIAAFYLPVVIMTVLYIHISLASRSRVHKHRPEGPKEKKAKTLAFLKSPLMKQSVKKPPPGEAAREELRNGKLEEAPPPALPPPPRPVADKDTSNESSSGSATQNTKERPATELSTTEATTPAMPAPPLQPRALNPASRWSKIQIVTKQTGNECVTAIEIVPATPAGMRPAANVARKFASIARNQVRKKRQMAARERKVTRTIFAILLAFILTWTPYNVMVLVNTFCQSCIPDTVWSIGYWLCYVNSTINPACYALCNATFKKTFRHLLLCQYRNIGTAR", "UniProt Q5S007, sequence (whole entry, looked up)": "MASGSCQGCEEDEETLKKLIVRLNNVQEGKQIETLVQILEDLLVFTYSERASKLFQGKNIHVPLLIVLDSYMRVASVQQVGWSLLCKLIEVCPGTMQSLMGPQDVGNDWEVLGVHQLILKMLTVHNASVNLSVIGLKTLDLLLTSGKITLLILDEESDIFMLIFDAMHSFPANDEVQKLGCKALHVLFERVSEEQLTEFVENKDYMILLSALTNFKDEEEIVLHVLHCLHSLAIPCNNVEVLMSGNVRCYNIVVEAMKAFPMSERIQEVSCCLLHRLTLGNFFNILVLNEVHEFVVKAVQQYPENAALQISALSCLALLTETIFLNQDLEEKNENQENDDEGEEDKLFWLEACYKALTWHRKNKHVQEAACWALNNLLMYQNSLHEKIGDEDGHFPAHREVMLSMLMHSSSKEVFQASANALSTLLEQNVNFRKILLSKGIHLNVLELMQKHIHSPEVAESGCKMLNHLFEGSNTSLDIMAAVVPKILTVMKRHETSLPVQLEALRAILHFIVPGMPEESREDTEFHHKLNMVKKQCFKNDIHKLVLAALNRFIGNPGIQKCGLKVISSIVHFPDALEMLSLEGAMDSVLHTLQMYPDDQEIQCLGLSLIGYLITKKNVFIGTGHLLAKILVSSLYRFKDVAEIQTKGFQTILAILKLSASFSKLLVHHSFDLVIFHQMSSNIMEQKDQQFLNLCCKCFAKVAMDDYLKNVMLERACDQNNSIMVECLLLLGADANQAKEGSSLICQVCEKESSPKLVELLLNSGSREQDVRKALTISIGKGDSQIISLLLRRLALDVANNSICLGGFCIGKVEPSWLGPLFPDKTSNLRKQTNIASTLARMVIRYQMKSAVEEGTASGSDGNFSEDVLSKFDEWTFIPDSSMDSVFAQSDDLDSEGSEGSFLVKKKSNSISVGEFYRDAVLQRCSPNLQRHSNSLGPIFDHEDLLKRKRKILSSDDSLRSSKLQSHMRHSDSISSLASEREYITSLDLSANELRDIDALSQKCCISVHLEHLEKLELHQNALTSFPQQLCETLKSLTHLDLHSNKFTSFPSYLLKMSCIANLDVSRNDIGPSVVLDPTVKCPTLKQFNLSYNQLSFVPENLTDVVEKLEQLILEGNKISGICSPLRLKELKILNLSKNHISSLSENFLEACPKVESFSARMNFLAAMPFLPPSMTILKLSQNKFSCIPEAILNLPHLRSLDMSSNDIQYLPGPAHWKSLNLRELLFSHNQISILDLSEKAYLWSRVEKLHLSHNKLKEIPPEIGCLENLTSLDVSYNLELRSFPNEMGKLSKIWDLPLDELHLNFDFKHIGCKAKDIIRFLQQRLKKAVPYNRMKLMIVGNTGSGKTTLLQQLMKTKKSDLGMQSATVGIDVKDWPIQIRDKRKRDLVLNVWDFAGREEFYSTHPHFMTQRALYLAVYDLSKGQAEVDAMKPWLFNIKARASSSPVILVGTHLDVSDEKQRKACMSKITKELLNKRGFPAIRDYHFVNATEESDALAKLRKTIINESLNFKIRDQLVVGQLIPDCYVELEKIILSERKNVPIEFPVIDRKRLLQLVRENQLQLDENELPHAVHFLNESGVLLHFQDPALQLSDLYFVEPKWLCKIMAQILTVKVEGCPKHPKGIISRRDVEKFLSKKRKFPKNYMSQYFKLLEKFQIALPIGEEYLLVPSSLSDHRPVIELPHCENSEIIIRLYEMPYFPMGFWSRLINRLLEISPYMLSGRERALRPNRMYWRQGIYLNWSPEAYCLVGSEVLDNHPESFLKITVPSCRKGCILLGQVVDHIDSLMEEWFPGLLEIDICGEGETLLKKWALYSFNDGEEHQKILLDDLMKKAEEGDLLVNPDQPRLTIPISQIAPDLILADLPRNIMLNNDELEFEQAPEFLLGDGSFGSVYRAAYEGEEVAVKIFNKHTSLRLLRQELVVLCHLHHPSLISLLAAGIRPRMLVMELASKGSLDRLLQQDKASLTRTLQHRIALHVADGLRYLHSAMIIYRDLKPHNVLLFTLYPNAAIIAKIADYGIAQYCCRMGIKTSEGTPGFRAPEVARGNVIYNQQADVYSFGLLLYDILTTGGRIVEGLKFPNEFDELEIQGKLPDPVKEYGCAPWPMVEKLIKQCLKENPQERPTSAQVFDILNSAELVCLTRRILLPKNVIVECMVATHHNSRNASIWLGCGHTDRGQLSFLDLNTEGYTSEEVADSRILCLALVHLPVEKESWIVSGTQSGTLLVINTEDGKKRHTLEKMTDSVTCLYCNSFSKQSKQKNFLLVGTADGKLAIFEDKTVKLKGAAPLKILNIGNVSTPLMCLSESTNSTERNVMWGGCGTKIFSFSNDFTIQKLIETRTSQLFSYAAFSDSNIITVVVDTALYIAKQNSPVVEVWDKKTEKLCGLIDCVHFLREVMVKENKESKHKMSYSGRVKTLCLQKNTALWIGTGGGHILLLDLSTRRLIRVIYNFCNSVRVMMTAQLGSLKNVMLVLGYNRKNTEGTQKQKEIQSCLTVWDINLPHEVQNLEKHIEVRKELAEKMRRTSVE", "UniProt Q09470, sequence (whole entry, looked up)": "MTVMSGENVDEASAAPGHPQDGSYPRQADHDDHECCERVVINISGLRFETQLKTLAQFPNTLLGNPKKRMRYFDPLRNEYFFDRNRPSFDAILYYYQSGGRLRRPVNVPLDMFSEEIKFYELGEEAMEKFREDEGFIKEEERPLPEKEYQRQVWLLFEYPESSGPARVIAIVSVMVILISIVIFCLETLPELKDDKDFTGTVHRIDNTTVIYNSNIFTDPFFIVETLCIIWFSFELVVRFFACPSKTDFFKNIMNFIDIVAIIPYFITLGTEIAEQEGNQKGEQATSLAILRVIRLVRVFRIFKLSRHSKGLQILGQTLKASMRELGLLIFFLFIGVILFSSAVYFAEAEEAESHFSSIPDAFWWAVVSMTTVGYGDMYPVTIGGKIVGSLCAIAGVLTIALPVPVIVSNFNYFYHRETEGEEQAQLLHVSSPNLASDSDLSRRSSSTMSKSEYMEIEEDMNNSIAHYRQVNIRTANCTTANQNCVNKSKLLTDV", "UniProt P08908, sequence (whole entry, looked up)": "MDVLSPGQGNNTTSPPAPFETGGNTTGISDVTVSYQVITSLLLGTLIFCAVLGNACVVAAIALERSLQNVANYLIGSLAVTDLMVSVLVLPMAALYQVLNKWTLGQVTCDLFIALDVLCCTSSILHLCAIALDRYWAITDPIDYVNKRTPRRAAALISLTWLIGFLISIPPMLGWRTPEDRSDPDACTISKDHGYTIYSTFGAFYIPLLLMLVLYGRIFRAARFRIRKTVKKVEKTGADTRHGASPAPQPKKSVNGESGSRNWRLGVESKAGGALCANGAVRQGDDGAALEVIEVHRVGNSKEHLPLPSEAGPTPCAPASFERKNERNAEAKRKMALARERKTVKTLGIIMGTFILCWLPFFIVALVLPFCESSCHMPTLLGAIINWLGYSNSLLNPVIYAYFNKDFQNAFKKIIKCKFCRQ"}
{"SMILES": "COc1ccccc1N1CCN(c2cccc(F)c2C#N)CC1", "target": "PFF0160c E182D", "read-out": "enzyme activity", "action": "inhibitor", "method": "absorbance", "measurement": "IC50", "result": "> 10 µM"}
{"SMILES": "CN1C(=S)N(c2ccccc2)C(=O)/C1=C1/C(=O)N(C)c2ccc(Cl)cc21", "target": "ACHE", "read-out": "enzyme activity", "action": "inhibitor", "method": "Ellman", "tested at": "10 nM", "measurement": "inhibition", "result": "1%"}
{"SMILES": "CC(C)CC(=O)OC[C@H]1O[C@@](C#N)(c2ccc3c(N)ncnn23)[C@H](O)[C@@H]1O", "target": "CHRM2", "read-out": "cell-free assay", "tested at": "20 µM", "measurement": "inhibition", "result": "-6%"}
{"SMILES": "COc1ccccc1C1CN(CCNC(=O)c2nc(C)c[nH]2)Cc2ccccc2O1 (stereo not drawn)", "target": "PFF0160c E182D", "read-out": "enzyme activity", "action": "inhibitor", "method": "absorbance", "measurement": "IC50", "result": "> 10 µM"}
{"SMILES": "CCc1ccc(N2C(=O)/C(=C3/C(=O)N(C)c4ccc(Cl)cc43)NC2=S)cc1", "target": "ACHE", "read-out": "enzyme activity", "action": "inhibitor", "method": "Ellman", "tested at": "0.1 µM", "measurement": "inhibition", "result": "31%"}
{"SMILES": "C#Cc1n[nH]c2c(-c3cn([C@@H](C)c4ccccn4)c(=O)[nH]c3=O)cc(F)cc12", "target": "Leucine-rich repeat serine/threonine-protein kinase 2 (LRRK2, Homo sapiens, UniProt Q5S007)", "read-out": "enzyme activity", "action": "inhibitor", "tested at": "0.1 µM", "measurement": "inhibition", "result": "5.9%"}
{"SMILES": "CN1CCC[C@H]1c1cccnc1", "target": "CHRM2", "read-out": "ligand displacement", "tested at": "50 µM", "measurement": "inhibition", "result": "-1.33%"}
{"SMILES": "Nc1ccncc1", "target": "Potassium voltage-gated channel subfamily A member 1 (KCNA1, Homo sapiens, UniProt Q09470)", "read-out": "ion current", "action": "inhibitor", "method": "patch clamp", "tested at": "10 µM", "measurement": "inhibition", "result": "1080%"}
{"SMILES": "[2H]c1c([2H])c([C@]2([2H])CCCN2C(=O)C(C)(C)Oc2ccc3cn[nH]c3c2)c([2H])c([2H])c1C([2H])([2H])[2H]", "target": "Serine/threonine-protein kinase N1 (PKN1, Homo sapiens, UniProt Q16512)", "read-out": "binding", "method": "competition with immobilised ligand", "tested at": "1 µM", "measurement": "remaining binding", "result": "80%"}
{"SMILES": "c1cncc([C@@H]2CCCN2)c1", "target": "Muscarinic acetylcholine receptor M4 (CHRM4, Homo sapiens, UniProt P08173)", "read-out": "ligand displacement", "tested at": "50 µM", "measurement": "inhibition", "result": "-3.41%"}
{"SMILES": "CN1C(=O)/C(=N\\Nc2ncc(-c3cc4ccccc4oc3=O)s2)c2cc(Cl)ccc21", "target": "ACHE", "read-out": "enzyme activity", "action": "inhibitor", "method": "Ellman", "tested at": "10 nM", "measurement": "inhibition", "result": "15%"}
{"SMILES": "CC(C)C[C@H]1C(=O)N2CCC[C@H]2[C@]2(O)O[C@](NC(=O)[C@@H]3C=C4c5cccc6[nH]c(Br)c(c56)C[C@H]4[N+](C)(C)C3)(C(C)C)C(=O)N12", "target": "5-hydroxytryptamine receptor 1A (HTR1A, Homo sapiens, UniProt P08908)", "read-out": "ligand displacement", "method": "radioligand", "tested at": "10 µM", "measurement": "inhibition", "result": "99.4%"}
{"note": "A few entries again:"}
{"SMILES": "Nc1ccncc1", "target": "Potassium voltage-gated channel subfamily A member 1 (KCNA1, Homo sapiens, UniProt Q09470)", "read-out": "ion current", "action": "inhibitor", "method": "patch clamp", "tested at": "10 µM", "measurement": "inhibition", "result": "1080%"}
{"SMILES": "[2H]c1c([2H])c([C@]2([2H])CCCN2C(=O)C(C)(C)Oc2ccc3cn[nH]c3c2)c([2H])c([2H])c1C([2H])([2H])[2H]", "target": "Serine/threonine-protein kinase N1 (PKN1, Homo sapiens, UniProt Q16512)", "read-out": "binding", "method": "competition with immobilised ligand", "tested at": "1 µM", "measurement": "remaining binding", "result": "80%"}
